Published values of several laboratories.
Compare with care: the assays were run in different laboratories. Several values in a cell are separate wells, animals, samples, runs or records. Numbers after ± are the reported error.

COc1ccc(Cn2nc(-c3ccc(CO)o3)c3ccccc32)cc1
IC50 (RBE; cell viability, CellTiter-Glo): 1170 nM

CC#Cc1cncc(-c2ccc3c(c2)[C@@]2(N=C(C)C(N)=N2)[C@]2(CC[C@H](OC)CC2)C3)c1
IC50 (SH-SY5Y, APP overexpressing, wild type; Aβ40 production): 0.08 nM

[NH2][Pt]([NH2])([Cl])[Cl]
IC50 (RWPE-1 normal prostate; cell viability, MTT; 72 h): 4500 ± 500 nM

Cc1[nH]c(/C=C2\C(=O)Nc3ccc(S(=O)(=O)N(C)c4cccc(Cl)c4)cc32)c(C)c1C(=O)N1CCN(C)CC1
IC50 (NCI-H2228 (EML4-ALK); cell growth; 3 days): 8320 ± 3010 nM

C=Cc1c(C)c2cc3nc(c(CC(=O)O)c4[nH]c(cc5nc(cc1[nH]2)C(C)=C5CC)c(C)c4C(=O)O)[C@@H](CCC(=O)O)[C@@H]3C
IC50 (4T1; cell viability, MTT; 72 h, with: laser irradiation): 2.65 µg/mL

Clc1ccc(COc2cncc(-c3cnn(C4CCNCC4)c3)c2)c(Cl)c1
IC50 (BV-2; cell count, high-content imaging; geometric mean): 4190 nM

Cc1c(C(=O)O)ccc2c3n(nc12)[C@@H]1[C@H](C3)N(CC2CC2)[C@@]2(C(=O)Nc3cc(Cl)ccc32)[C@H]1c1cccc(Cl)c1F
IC50 (LS180 (MDM2 non-amplified); cell growth, alamarBlue; 120 h): 34 nM

CCN(Cc1c(Cl)cccc1Cl)c1ccc(CO)c(Cl)c1
IC50 (RBE; cell viability, CellTiter-Glo): 150 nM

COc1ccc(F)cc1C(=O)NCc1ccc(-c2nn([C@@H](C)C(F)(F)F)c(N)c2C(N)=O)cc1
IC50 (Rec1; item: IL-4; 24 h): > 100 nM

CO[C@H]1[C@H](O[C@H]([C@H]2O[C@@H](n3ccc(=O)[nH]c3=O)[C@H](O)[C@@H]2O)[C@H](NCCCNC(=O)[C@@H](NC(=O)[C@@H](NC(=O)N[C@H](C(=O)O)C(C)C)[C@@H]2CCN=C(N)N2)[C@@H](O)C(C)C)C(=O)O)O[C@H](CN)[C@H]1O
IC50 (breast cancer, MCF-10A and Vero; cell viability, WST-1; range over all lines): > 35000 nM

COc1cc2c3c(n(CCCN4CCOCC4)c(=O)c2cc1OC)-c1nc2c(cc1C3=O)OCO2
IC50 (CCRF-CEM leukaemia cells; cytotoxicity, MTS; 72 h): 248 ± 96 nM

CCCCN1C[C@H](O)[C@@H](O)[C@@H](O)[C@H]1CO
IC50 (sample G patient fibroblasts; Gb3 level lowering, LC-MS/MS, item: Gb3 d18:1/18:0; 216 h): 9000 nM

O=C(C[C@@H](C(F)F)n1ccc(F)n1)N1CCC(O)(Cn2cnc3c(cnn3-c3ccc(F)cc3)c2=O)CC1
IC50 (CAPAN-1; cell viability, SRB; 5 days): 50 ± 10 nM

CCN(Cc1ccccn1)c1ccc(CO)c(Cl)c1
IC50 (RBE; cell viability, CellTiter-Glo): 430 nM

C=CC(=O)Nc1cc(Nc2nccc(-c3cn(C)c4ccccc34)n2)c(OC)cc1N(C)CCN(C)C
IC50 (Ba/F3 EGFR S768I; cell proliferation, CellTiter-Glo; 72 h): 48.1 ± 1.85 nM

Nc1ccn([C@@H]2O[C@H](CO)[C@@H](O)C2(F)F)c(=O)n1
IC50 (CAPAN-1; cell viability, MTT; mutant KRAS liver metastasis): > 10000 nM

CC#CC(=O)N1CCC[C@H]1c1nc(-c2ccc(C(=O)Nc3ccccn3)cc2)c2c(N)nccn12
IC50 (Rec1; calcium flux; with: anti-IgM): 72.7 nM

OCc1ccc(-c2nn(Cc3ccncc3)c3ccccc23)o1
IC50 (RBE; cell viability, CellTiter-Glo): 160 nM and 170 nM

CC(=O)C1=C(C)Nc2sc(C(=O)c3ccc(Cl)c(Cl)c3)c(N)c2C1c1cccnc1 (stereo not shown)
IC50 (BV-2; cell count, high-content imaging; geometric mean): 17500 nM

Cc1nc(Nc2ncc(C(=O)Nc3c(C)cccc3Cl)s2)cc(N2CCN(CCO)CC2)n1
IC50 (CFPAC; cell viability, MTT; mutant KRAS liver metastasis): 3580 nM

C=CC(=O)NC1CCN(c2ncc3ncnc(Nc4ccc(Oc5ccc6c(c5)ncn6C)c(C)c4)c3n2)CC1
IC50 (Ba/F3 expressing HER2 S335C; cell growth, inhibitor, CellTiter-Glo): 3.5 nM

C[C@H](Nc1ccc2c(c1)OCCn1cc(N3C(=O)OC[C@H]3C(F)F)nc1-2)C(N)=O
IC50 (MFE-280; growth rate inhibition, CellTiter-Glo; 120 h): 16.7 nM

CCCCn1cnc2ccc(-c3ccc(NC(C)=O)nc3)cc2c1=O
IC50 (NSCLC cells; cell growth): > 10000 nM

COc1cc(N2CCC(N3CCN(C)CC3)CC2)ccc1Nc1ncc(Cl)c(Nc2ccccc2S(=O)(=O)C(C)C)n1
IC50 (NCI-H2228 (EML4-ALK); cell growth; 3 days): 220 ± 70 nM

CC(C)NCC(O)c1ccc(NS(C)(=O)=O)cc1 (stereo not shown)
IC50 (hiPSC-derived cardiomyocytes; beat period change, field potential recording; 30 min, coupled electrode condition): 7610 nM

COc1c(Cl)cccc1Nc1c(-c2ccncc2OC[C@@H]2COCCO2)[nH]c2c1C(=O)NCC2
IC50 (Ba/F3 expressing HER2 S335C; cell growth, inhibitor, CellTiter-Glo): 5.9 nM

COc1ccccc1OCC(O)CN1CCN(CC(=O)Nc2c(C)cccc2C)CC1 (stereo not shown)
IC50 (hiPSC-derived cardiomyocytes; beat period change, field potential recording; 30 min, decoupled electrode condition): 5890 nM

N#Cc1ccc2c(CN3CCOCC3)cc(-c3ccc([C@H]4CCC(=O)N4)cc3)nc2c1
IC50 (mouse aortic smooth muscle cells; cell migration, scratch wound; with: CML-HSA 10 µg/mL): 2 ± 1 nM

NCCOCCCN1CCN(c2ccc(-c3cncc(Cl)c3N3CCC4(CCNC4=O)CC3)cc2)CC1
IC50 (LS174T; WNT reporter gene, inhibitor, TCF/LEF luciferase): 103 nM

O=C1[C@H](Cc2ccc(O)cc2)N2C(=O)CCN(C(=O)NCc3ccccc3)[C@H]2CN1Cc1cccc2ccccc12
IC50 (HCT-116 LEF/TCF-bla, CTNNB1 Ser45 deletion; LEF/TCF reporter gene, inhibitor; 5 h): 1060 nM

O=C1NCCc2[nH]c(-c3ccncc3)cc21
IC50 (786-0 renal; cell growth, MTS): 9300 nM

CC(C)c1ccc(C2C(C#N)=C3N=C(N)c4ccccc4N3C3=C2C(=O)CCC3)cc1 (stereo not shown)
IC50 (BV-2; nuclear intensity, high-content imaging; geometric mean): > 60000 nM

COCCN(Cc1ccc(F)cc1)c1ccc(CO)c(Cl)c1
IC50 (RBE; cell viability, CellTiter-Glo): 370 nM

CCOc1cc2ncc(C#N)c(Nc3ccc(OCc4ccccn4)c(Cl)c3)c2cc1NC(=O)/C=C/CN(C)C
IC50 (Ba/F3 expressing HER2 S335C; cell growth, inhibitor, CellTiter-Glo): 0.7 nM

OCc1ccc(-c2nn(Cc3cccnc3)c3cccnc23)o1
IC50 (RBE; cell viability, CellTiter-Glo): 4920 nM

COc1cc2c3c(n(CCCNC(C)C)c(=O)c2cc1OC)-c1nc2c(cc1C3=O)OCO2
IC50 (CCRF-CEM leukaemia cells; cytotoxicity, MTS; 72 h): 57 ± 28 nM

OCc1ccc(N(Cc2ccc(F)cc2)C2CCC2)cc1Cl
IC50 (RBE; cell viability, CellTiter-Glo): 740 nM

Cc1nc(NC(=O)N2CCC[C@H]2C(N)=O)sc1-c1ccnc(C(C)(C)C(F)(F)F)c1
IC50 (EFM-19; growth rate inhibition, CellTiter-Glo; 120 h): 158 nM

CC(c1ccccc1)n1nc(-c2ccc(CO)o2)c2ccccc21 (stereo not shown)
IC50 (RBE; cell viability, CellTiter-Glo): 4160 nM and ~4000 nM

Cn1ncnc1[C@H]1c2n[nH]c(=O)c3cc(F)cc(c23)N[C@@H]1c1ccc(F)cc1
IC50 (SK-OV-3 BRCA2 knockout; colony formation): 0.689 nM

For quick reference, copied from above:
COc1ccc(F)cc1C(=O)NCc1ccc(-c2nn([C@@H](C)C(F)(F)F)c(N)c2C(N)=O)cc1
IC50 (Rec1; item: IL-4; 24 h): > 100 nM

CO[C@H]1[C@H](O[C@H]([C@H]2O[C@@H](n3ccc(=O)[nH]c3=O)[C@H](O)[C@@H]2O)[C@H](NCCCNC(=O)[C@@H](NC(=O)[C@@H](NC(=O)N[C@H](C(=O)O)C(C)C)[C@@H]2CCN=C(N)N2)[C@@H](O)C(C)C)C(=O)O)O[C@H](CN)[C@H]1O
IC50 (breast cancer, MCF-10A and Vero; cell viability, WST-1; range over all lines): > 35000 nM

COc1cc2c3c(n(CCCN4CCOCC4)c(=O)c2cc1OC)-c1nc2c(cc1C3=O)OCO2
IC50 (CCRF-CEM leukaemia cells; cytotoxicity, MTS; 72 h): 248 ± 96 nM
